Measurements of several laboratories.
A part holds a random share of what one study measured. Substitutions count along the parent as printed.

Study 1
Target: RNA binding protein fox-1 homolog 2, RRM domain, GST-SBP tag (RBFOX2, Homo sapiens, UniProt O43251-10, residues 100-194)
Technique: RNA Bind-n-Seq
Form: RNA
Sample: in vitro
Concentration: 365 nM
Setting: natural RNA segment, single round, ends assumed
Relative to: no-protein control
Reading: higher = stronger binding
Shared flanks, not repeated: GGGAGUUCUACAGUCCGACGAUC … UGGAAUUCUCGGGUGCCAA
Residues (chain): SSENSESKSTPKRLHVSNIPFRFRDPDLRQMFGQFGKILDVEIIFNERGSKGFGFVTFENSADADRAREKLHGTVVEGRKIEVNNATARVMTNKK
| Oligonucleotide | RBNS enrichment (R) |
| --- | --- |
| UUGUGACAGCAUCUUCACCACUUUGGGGACCAUCCAGAGUGGGGGAGUGGGGGAGACUUCACCCUGGAGCCAAAGGCUACACCGUACGUGUAGUCCCAGAGCCCGUCACA | 0.298 |
| AGGAGGUUAGCCGUUAUUUACCAACUUUCAAGAACGUAAUCUUGUUCAAUAAGGUGAAAUAUCAAUGAUUGGUACACAGUCACAAUGUACCGUUAAAAUAUGCACUAAGU | 0.331 |
| CAUAAAGAUGUCUGCAGCUAUUUCCUACCCAGAUGUUCCUGAUGUGAUAAGCAGGGGACUUUUUUUUUUUUUCCUUCAGAUGCUAUCCAUAAAAUCCAAGCCCUUUCUUA | 0.833 |
| GUCACAGGUAAAAUCAGUGUUGGGAAUUAUAAUUUGAGAAAAAUAUUACCCAGUAACAUUGAAUGUAGAUGGCUAAACGAUUCUUACUCAGUGUGAUGUAUAAUGAUGCA | 2.2 |
| CUUCACAGCACCUUCCCAGUGGGUAGAAAGCCACACACCAGGAUGUGGGUCAACCAUGAAGAUGUGGCAUUGCAGACGGGGGAACAUGUGGAUGCAUGGCUAUCGCCCUG | 1.7 |
| CUGGAAGAUUUUUAACAAAGGGAAAAACCAACAGCAAUAAGUCAUUGGUGAGCAGCUAACUCGCUCAUUGAUGAGCAGCUAACUCUCACACACAUACACACACACACACA | 0.7 |
| CAUAAGGAGCUUUAGACCAGUCAAUGAUACAUAGUGAAACCCUACCUCAAAAACAAAACAAAAAAAAUGUUUUUACGCAUUUUAUCAAAAUUAGCACAUCUGUGGCUGAG | 0.48 |
| UGGCGCGCUGAUUAGACUUCAGUUCCUGAAAAGGACCAGUGGAGGGAAGAGCUAUACUUCUGGAGAAGUAGGCCUGGAGUUACUACAGUAUGGGGGAAAAGGGUCGAGUU | 1.01 |
| CCUCAGCCGGUGGGUCACUUCUCCAGUGUCCAGUGCCAUCUUUCUCGACCCUGUUUCUUUCCAUUCAAGAACCGUCGGUCCCCUUGUAAUAAAGGUGGUAGAUUUCAUUA | 0.227 |
| GCUCCUCCCUACAGGCACUGUCUGUCUUCACAGGGCUUGGUCUUUCUGCUGCCACUUGUGAAAACCGAAAAAAAACAAGACUACAUAGCACCGACUUUUUGAAAAUCAGA | 0.648 |
| UAUAGUCAUGGGUUCUGCCUCUGUGCCCUUGCUGGCCGCUUCUCCUCUGCCUUCUUUCCUGGAACUCAGGGUGUGGGGACUGAGCCUGUAGGGGACAGCAUGCCGUCUUG | 0.593 |
| CAAAUGGAACAGAAGCCAUUGUGGUUCAUCCUGAUUACUUGAACGUUGCACUUGGUGGACCGUGCCUGGGAGCGCUCGCAUGCCCCCUGGCUUCAGAAGUCAUGUCAGUG | 0.263 |

Study 2
Target: CCNB1, cyclin fold, Cln2 fusion (human)
Technique: yeast growth competition, sequencing
Sample: yeast
Setting: strong parent motif
Relative to: not given
Reading: higher = stronger binding
Starting sequence: PKMYT1 docking peptide (human); SFEPRNLLSLFED
| Variant | normalised enrichment score |
| --- | --- |
| P4W | 0.162 |
| R5H | -1.29 |
| S1G | 1.91 |
| L8K | 0.204 |
| N6E | 0.463 |
| E12V | 0.76 |
| N6G | 0.968 |
| E3G | -0.154 |
| S9I | 0.679 |
| D13F | 1.12 |
| F11K | 0.489 |
| F11Q | 0.373 |
| L10T | 0.131 |
| R5W | 0.361 |
| D13Y | 0.717 |
| L8M | 1.94 |
| F2P | 0.192 |
| S1F | 2.02 |
| E3N | -0.303 |
| R5S | 0.413 |
| F11A | 0.332 |
| N6H | 0.231 |
| F2L | 0.715 |

Study 3
Target: Sal-like protein 4, full length isoform B (SALL4, Homo sapiens, UniProt Q9UJQ4-2, residues 1-616)
Technique: universal PBM
Form: double-stranded DNA, one strand shown
Sample: in vitro
Concentration: not given
Setting: 8-mer, flanks averaged, mean of replicates
Reading: higher = stronger binding
| Oligonucleotide | E-score |
| --- | --- |
| ACATAGTG | 0.19 |
| TCGCGCCA | -0.18 |
| AATCCCAA | 0.0825 |
| AGCACACG | -0.117 |
| TGTCCGAA | 0.0492 |
| AAGGGGCG | -0.144 |
| TAATAACA | 0.403 |
| CCATATTA | 0.343 |
| GTACCGGA | -0.21 |
| AGGAGGCA | -0.283 |
| CACAGCGC | -0.289 |
| CAATCACG | 0.136 |
| GATTCTAC | -0.0879 |
| CCCCACTC | -0.126 |
| AAAGGCAT | 0.147 |
| AGGACCTC | -0.178 |
| ATTCTGGC | -0.123 |
| CCCCCAGA | -0.176 |
| GTTTTCTA | 0.143 |
| ACTACGAG | -0.037 |
| TATGATCA | 0.274 |
| CATTGTTA | 0.219 |
| CCTCCTCA | -0.125 |

Study 4
Target: Ras GTPase-activating protein-binding protein 1, C-terminal RGG region (G3BP1, Homo sapiens, UniProt Q13283)
UniProt Q13283, sequence (whole entry, looked up): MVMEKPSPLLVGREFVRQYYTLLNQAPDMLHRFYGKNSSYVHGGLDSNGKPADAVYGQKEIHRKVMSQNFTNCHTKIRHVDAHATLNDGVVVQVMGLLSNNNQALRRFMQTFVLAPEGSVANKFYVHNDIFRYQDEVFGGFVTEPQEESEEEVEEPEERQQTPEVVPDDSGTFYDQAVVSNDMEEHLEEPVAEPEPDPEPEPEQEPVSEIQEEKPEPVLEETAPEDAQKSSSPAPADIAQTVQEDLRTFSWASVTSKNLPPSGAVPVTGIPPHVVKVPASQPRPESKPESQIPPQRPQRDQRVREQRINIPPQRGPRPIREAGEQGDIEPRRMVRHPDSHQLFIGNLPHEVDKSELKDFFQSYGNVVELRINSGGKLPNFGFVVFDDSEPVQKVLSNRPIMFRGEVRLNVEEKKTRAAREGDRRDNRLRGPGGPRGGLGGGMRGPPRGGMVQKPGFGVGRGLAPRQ
Technique: RNA Bind-n-Seq
Form: RNA
Sample: in vitro
Concentration: 1 µM
Setting: whole 134-nt RNA, ends assumed
Together with: 150 mM KCl
Relative to: input library
Reading: higher = stronger binding
Shared flanks, not repeated: GGGAGUUCUACAGUCCGACGAUC … UGGAAUUCUCGGGUGUCAAGG
| Oligonucleotide | log2 enrichment |
| --- | --- |
| GUCCUGUGCUACACAUCGUAUGUACCGAAUCAAAUUUUUUUAAAUUUAAAUUUUUAAAAAAGUAUUAUGUUACGCCGUUCGGAUCUGCAC | -2.26 |
| UGGUUAGUCAACUACUUUGGUUCCUUAUCAGUAGAAGACUCCCUAGAAUGUCUCAGAGCCAUGCUGUCUGCCAACAUCCGUCAGAAUCUG | -0.579 |
| UUGUUCUGGCAUAAACAUAACAUUGAGAAGUCCCUUGCUGAUCUCCCUAAUUUCACUCCCUUUCCGGAUGAGUGGACAGUGGAAGAUAAA | -0.98 |
| UCAAGUCCUGUGCUACACAUCGUAUGUACCGAAUCGGGGCCGGCCGGGGCCGGGGAAAGUAUUAUGUUACGCCGUUCGGAUCUGCACUUC | -2.02 |
| CACAGACAACACGCACCCACACAGACACAGAGGGAAGGGGUUGGGAUGGGGACAGGGUGCACAGCAGGGCAAAGUAGGACCCCAGCCCCU | -0.308 |
| CUCAAGUCCUGUGCUACACAUCGUAUGUACCGAAUCGGGAAAGGGAGGGAGGGAAAGUAUUAUGUUACGCCGUUCGGAUCUGCACUUCCA | 2.07 |
| CCUGUGCUACACAUCGUAUGUACCGAAUCGGAAAAAAGGGGAAAAAAGGGGAAAAAAGGGGAAAGUAUUAUGUUACGCCGUUCGGAUCUG | -1.32 |
| CUGUGCUACACAUCGUAUGUACCGAAUCGGGGCCCCCCCGGCCCCCCCGGGCCCCCCCGGGGAAAGUAUUAUGUUACGCCGUUCGGAUCU | -2.12 |
| UCAAGUCCUGUGCUACACAUCGUAUGUACCGAAUCGGUUUGGAAAGGAAAAAGGAAAGUAUUAUGUUACGCCGUUCGGAUCUGCACUUCC | -1.27 |
| CACAGACAACACGCACCCACACAGACACAGAGGGAAGGGGUUGGGAUGGGGACAGGGUACACAGCAGGGCGGGGUAGGACCCCAGCCCCU | -0.296 |
| UCUUCAGAGGCCCCACAGUAUCAAAUAUCCGCCUGGCUGGAUUAGAGUAUGUUCUGCACUUCACUGCACUGAAUGGGAAGAUUUACUUUC | -0.714 |
| ACCAUGCAGGUGGGCAUCUUUGGGAAGUGGGGCAAGGGGGGGAUAGGGAGGGGGGUAACACUCUGGGAACAGGUGGUCCCAGGUCGUUUC | 1.93 |
| UUUUAUUCUUCCAUCUUUUCCCACAGGUGGCAGCUGCCAACAAGAAGCAUUAGAACAAACCAUGCUGGGUUAAUAAAUUGCCUCAUUCGU | -0.84 |
| CUGUGCUACACAUCGUAUGUACCGAAUCGGGUUUUUUUGGUUUUUUUGGGGUUUUUUUGGGGAAAGUAUUAUGUUACGCCGUUCGGAUCU | -1.14 |

Study 5
Target: ABI1, truncated, D143A, DHFR fusion (Arabidopsis thaliana)
Technique: DHFR PCA, deep sequencing
Sample: yeast
Setting: methotrexate growth selection, single substitutions
Together with: (+)-ABA 4.8 µM
Relative to: wild-type fitted maximum
Reading: higher = stronger binding
Starting sequence: PYL1, truncated, DHFR fusion (Arabidopsis thaliana); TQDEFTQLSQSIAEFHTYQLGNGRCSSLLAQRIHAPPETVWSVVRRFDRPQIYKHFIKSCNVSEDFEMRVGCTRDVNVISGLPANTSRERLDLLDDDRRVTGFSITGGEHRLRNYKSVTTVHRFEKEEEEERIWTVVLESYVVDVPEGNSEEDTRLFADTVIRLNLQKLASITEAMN
| Variant | relative binding score [%] |
| --- | --- |
| Y141D | -12.4 |
| K116C | 18.3 |
| V70H | 13.3 |
| S87T | 28.3 |
| G21T | 74.4 |
| G21F | 40.9 |
| D92Q | 17.6 |
| C25F | 12.6 |
| E152A | 74.1 |
| S80C | 22.2 |
| R46A | 64.8 |
| R123Y | 45.3 |
| V136K | -6.64 |
| D65Y | 31.2 |
| K168M | 29.4 |
| I133P | 96.9 |

Some of these lines once more (study 5):
| Variant | relative binding score [%] |
| --- | --- |
| V70H | 13.3 |
| S87T | 28.3 |
| G21T | 74.4 |
| G21F | 40.9 |
| D92Q | 17.6 |
| C25F | 12.6 |
| E152A | 74.1 |
| S80C | 22.2 |
| R46A | 64.8 |
| R123Y | 45.3 |
| V136K | -6.64 |
